Measured values from different studies.
Each line is one published result; not all experiments were run side by side. Several values in a cell are separate wells, animals, samples, runs or records. Numbers after ± are the reported error.

Cc1cc(C)c(/C=C/c2nc(N)[nH]c(=O)c2Br)c(C)c1  EC50 (parainfluenza-3 virus; virus-induced cytopathicity; Vero): > 20 µM
NC(=O)c1nc(F)c[nH]c1=O  EC50 (Dengue virus; viral replication; BHK-21, DENV1; 120 h): 18 µM
COC(=O)N[C@H](C(=O)N1CCC[C@H]1c1ncc(-c2ccc(-c3ccc(-c4cnc([C@@H]5CCCN5C(=O)[C@@H](NC(=O)OC)C(C)C)[nH]4)cc3)cc2)[nH]1)C(C)C  EC50 (hepatitis C virus; viral replication, transient replicon; genotype 1a NS5A Y93H): 0.029 µM
CCCCCc1nc(N)[nH]c(=O)c1Br  EC50 (parainfluenza-3 virus; virus-induced cytopathicity; Vero): > 100 µM
CCC(CC)COC(=O)[C@H](C)N[P@](=O)(OC[C@H]1O[C@@](C#N)(c2ccc3c(N)ncnn23)[C@H](O)[C@@H]1O)Oc1ccccc1  EC50 (human coronavirus 229E; viral replication; MRC-5; 72 h): 0.071 µM
N#Cc1c(Nc2ccc(F)cc2)n[nH]c1NS(=O)(=O)c1ccc2ccccc2c1  EC50 (Usutu virus; viral replication; Vero 76, TC-508): > 7.6 µM
Nc1ncnc2c1ccn2[C@@]12C[C@H]1[C@H](CO)[C@@H](O)[C@H]2O  EC50 (Enterovirus A71; viral replication, visual; Vero 76, Tainan/4643/98): > 100 µM
COCC(=O)N1CCC[C@H](C(=O)NCc2nc(-c3ccc(C#N)cc3)cs2)C1  EC50 (Plasmodium falciparum; Dd2; added: WLW-vs fixed ratio 0.80:0.20): 0.0086 µM and 0.0098 µM
Nc1nc(CC(O)c2ccc(Cl)cc2)c(Br)c(=O)[nH]1 (stereo not drawn)  EC50 (parainfluenza-3 virus; virus-induced cytopathicity; Vero): > 100 µM
COCC(=O)N1CCC[C@H](C(=O)NCc2nc(-c3ccccc3)cs2)C1  EC50 (Plasmodium falciparum; Dd2 β5 S27F resistant): 43 ± 12 µM
O[C@H]1[C@H]2c3cc4c(cc3CN3CCC(=C[C@@H]1O)[C@H]23)OCO4  EC50 (dengue virus; viral replication, reporter virus particles; Huh-7.5.1; 48 h): 0.0406 µM
NC(=O)c1ncn([C@@H]2O[C@H](CO)[C@@H](O)[C@H]2O)n1  EC50 (Dengue virus; viral replication; BHK-21, DENV4; 120 h): 91 µM
Cc1cc(Nc2ccc(S(F)(F)(F)(F)F)cc2)n2nc(C(C)(F)F)nc2n1  EC50 (Saccharomyces cerevisiae; cell growth): > 30 µM
NC1CCN(S(=O)(=O)c2cc(C(=O)Nc3cc(F)c(F)c(F)c3)ccc2F)CC1  EC50 (Hepatitis B virus; viral replication, refers to: intracellular HBV DNA; HepG2.2.15; 6 days): 1.37 ± 0.08 µM
CCCCc1nc(N)[nH]c(=O)c1Br  EC50 (parainfluenza-3 virus; virus-induced cytopathicity; Vero): > 100 µM
Cc1ccc(N(c2ccc(NC(=O)CN(C)c3ccccc3N3CCCC3=O)cc2)C(C)C)cc1  EC50 (Plasmodium falciparum; parasite growth, SYBR Green; Dd2 CSC1 L800P mutant; 72 h): 3.24 µM
Cn1nc2c(=O)n(C3CC3)ncc2c1[C@](O)(c1cnc(C(F)(F)F)c(Cl)c1)C(F)(F)F  EC50 (Saccharomyces cerevisiae; cell growth): 10 ± 6.6 µM
CCC(C)n1ncn(-c2ccc(N3CCN(c4ccc(OCC5COC(Cn6cncn6)(c6ccc(Cl)cc6Cl)O5)cc4)CC3)cc2)c1=O (stereo not drawn)  EC50 (coxsackievirus B3; viral replication, inhibitor; 72 h): 0.79 ± 0.06 µM
CNC(=O)[C@@]12C[C@@H]1[C@@H](n1cnc3c(NCc4cccc(Cl)c4)nc(C#Cc4ccc(F)c(F)c4)nc31)[C@H](O)[C@@H]2O  EC50 (Enterovirus A71; viral replication, visual; Vero 76, Tainan/4643/98): > 32 µM
O=c1ccn([C@@H]2O[C@H](CO)[C@@H](O)[C@H]2O)c(=S)[nH]1  EC50 (Dengue virus; viral replication; BHK-21, DENV3): 2.1 µM
CNC(=O)[C@@]12C[C@@H]1[C@@H](n1cnc3c(NC)nc(C#Cc4ccc(Cl)s4)nc31)[C@H](O)[C@@H]2O  EC50 (Enterovirus A71; viral replication, visual cytopathic effect; Vero 76, Tainan/4643/98): > 100 µM
N#C[C@@]1(n2ccc(N)nc2=O)O[C@H](CO)[C@@H](O)[C@H]1O  EC50 (dengue virus; viral replication, cell-based; serotype 2): > 20 µM
Nc1ncnc2c1ccn2[C@H]1[C@H](O)[C@H](O)[C@]2(CO)C[C@H]12  EC50 (Enterovirus A71; viral replication, visual; Vero 76, Tainan/4643/98): > 100 µM
O=C1C(O)=C([C@H]2CC[C@H](c3ccc(Cl)cc3)CC2)C(=O)c2ccccc21  EC50 (Saccharomyces cerevisiae; cell growth): > 10 µM
CCN1CCN([C@@H](c2ccccc2)c2ccc(Cl)cc2)CC1  EC50 (dengue virus; viral replication, reporter virus particles; Huh-7.5.1; 48 h): 11.6 µM
COc1ccc(/C=C/c2nc(N)[nH]c(=O)c2Br)cc1OC  EC50 (parainfluenza-3 virus; virus-induced cytopathicity; Vero): > 100 µM
C[C@H]1CN(c2n[nH]c3nc(N[C@H]4CC[C@H](NS(=O)(=O)CCC(F)(F)F)CC4)ncc23)CCO1  EC50 (Leishmania donovani; LdBOB promastigotes overexpressing CRK12 G572D): 0.0254 ± 0.0002 µM

Excerpt of the above:
CNC(=O)[C@@]12C[C@@H]1[C@@H](n1cnc3c(NC)nc(C#Cc4ccc(Cl)s4)nc31)[C@H](O)[C@@H]2O  EC50 (Enterovirus A71; viral replication, visual cytopathic effect; Vero 76, Tainan/4643/98): > 100 µM
Nc1ncnc2c1ccn2[C@H]1[C@H](O)[C@H](O)[C@]2(CO)C[C@H]12  EC50 (Enterovirus A71; viral replication, visual; Vero 76, Tainan/4643/98): > 100 µM
